Measurements pooled from the literature.
Each line is one published result; not all experiments were run side by side. Values joined by “and” are separate records of one study, mostly repeats; a detail may differ.
MAPK3: Mitogen-activated protein kinase 3 (MAPK3, Homo sapiens, UniProt P27361)
MAPK3 with MyD88: Mitogen-activated protein kinase 3, with MyD88 (MAPK3, Homo sapiens, UniProt P27361)

Compound = NC(=O)[C@@H](O)C[C@H]1CCc2sc3ncnc(O[C@H]4CC[C@H](N5CCOCC5)CC4)c3c21; target = MAPK3; assay = enzyme activity, inhibitor; setting = 10 µM; quantity = inhibition; value = 4%
Compound = Cc1cnc2nc1Nc1cccc(c1)COC/C=C/COCc1cc(ccc1OCCN1CCOCC1)N2; target = MAPK3; assay = binding, competition with immobilised ligand; setting = 0.1 µM; quantity = remaining binding; value = 93%
Compound = COc1ccc(NC(=O)c2ccc3[nH]c(-c4ccc(N(C)C)cc4)nc3c2)cn1; target = MAPK3 with MyD88; assay = ERK1-MYD88 interaction, HTRF; setting = concentration not given; quantity = inhibition; value = 84%
Compound = CN1CCN(Cc2ccc(NC(=O)c3cccc(C#Cc4cnc(N)c5ncccc45)c3)cc2C(F)(F)F)CC1; target = MAPK3; assay = cell-free assay, competition with immobilised ligand; setting = 0.5 µM; quantity = remaining binding; value = 100%
Compound = CCn1cc(C(=O)O)c(=O)c2c(N)c(F)c(NC3CCCCC3)cc21; target = MAPK3; assay = kinase activity; setting = 0.1 µM, with: ATP at Km; quantity = inhibition; value = 5.9%
Compound = C[C@H]1CN(C(=O)c2cn(-c3ccnc(N)n3)c3cc(C#CC4(O)CCCCC4)ccc23)CCN1; target = MAPK3; assay = enzyme activity, inhibitor, FRET; setting = 1 µM; quantity = inhibition; value = 4%
Compound = C=CC(=O)N1CCc2ccc(-n3c(=O)ccc4cnc5ccc(-c6cnn(C)c6)cc5c43)cc21; target = MAPK3; assay = KINOMEscan; setting = 1 µM; scale = baseline: DMSO control; quantity = remaining binding; value = 100%
Compound = CNC1C[S+]2CC[S+]3CC[S+](C1)[Ru-4]321([N]=C=S)[n]2c3ccc(OC)cc3c3c4c(c5cc(F)c[n+]1c5c32)C(=O)NC4=O (centres unmarked); target = MAPK3; assay = KinomeScan; setting = 0.1 µM; scale = baseline: untreated; quantity = remaining binding; value = 100%
Compound = CN(C)c1ccc(-c2nc3cc(C(=O)Nc4ccc(Cl)cc4)ccc3[nH]2)cc1; target = MAPK3 with MyD88; assay = ERK1-MYD88 interaction, HTRF; setting = concentration not given; quantity = inhibition; value = 81%
Compound = CN1CCN(Cc2ccc(-c3ccc(CO[C@H]4CCC[C@@H]4NC(=O)c4cc(-c5cnn(C)c5)cnc4N)cc3)cc2)CC1; target = MAPK3; assay = enzyme activity, inhibitor; setting = 0.1 µM; quantity = inhibition; value = 4%
Compound = Nc1ncc(-c2cc(-c3cnn(CC(F)(F)F)c3)ncc2F)nc1C(=O)NC1CNCC(F)C1 (centres unmarked); target = MAPK3; assay = enzyme activity; setting = 1 µM; scale = baseline: DMSO control; quantity = remaining activity; value = 98.8%
Compound = COc1c(Cl)cccc1Nc1c(-c2ccncc2C#C[C@@]2(C)CCCN2C(=O)/C=C/CN(C)C)[nH]c2c1C(=O)NCC2; target = MAPK3; assay = binding, competition with immobilised ligand; setting = 3 µM; quantity = remaining binding; value = 100%
Compound = CS(=O)(=O)Nc1cccc(-c2csc3cnc(Nc4ccc(N5CCN(CCCCCOc6cccc7c6C(=O)N(C6CCC(=O)NC6=O)C7=O)CC5)cc4)nc23)c1 (centres unmarked); target = MAPK3; assay = probe labelling, inhibitor, KiNativ chemoproteomics; system = MOLT-4; setting = 1 µM; quantity = inhibition; value = -19.6%
Compound = CC(=O)N1c2ccc(-c3ccc(CNC(=O)c4cn5cc(-c6cnc(N)nc6)nc(N6CCOCC6)c5n4)cc3)cc2CC[C@@H]1C; target = MAPK3; assay = KINOMEscan; setting = 10 µM; quantity = remaining binding; value = 99%
Compound = C=C1CCCCCCCCCC(CO)C1=O (centres unmarked); target = MAPK3; assay = cell-free assay, competition with immobilised ligand; setting = 10 µM; quantity = remaining binding; value = 100%
Compound = C=CC(=O)N1CCCC(n2c(=O)c3ncccc3n(Cc3ccc(Oc4ccccc4)cc3)c2=O)C1 (centres unmarked); target = MAPK3; assay = cell-free assay, competition with immobilised ligand; setting = 1 µM; quantity = remaining binding; value = 87%
Compound = Cc1cccc(-c2ccc3nc(NC(=O)C4CCCCC4)nn3c2)c1; target = MAPK3; assay = enzyme activity, Dundee kinase panel; setting = 10 µM; quantity = remaining activity; value = 96%
Compound = Cc1cccc(O[C@H]2CCC[C@@H](C(C)CNCc3ccncc3)C2)c1 (relative stereo); target = MAPK3; assay = enzyme activity, inhibitor; setting = 10 µM; quantity = inhibition; value = -9%
Compound = C=CC(=O)Nc1cccc(-c2cnc3[nH]cc(C(=O)NC(C)(C)C)c3n2)c1; target = MAPK3; assay = kinase activity; setting = 0.1 µM; quantity = inhibition; value = 3% and 1%
Compound = Cc1cccc(-c2ccc3nc(NC(=O)C4CCOCC4)nn3c2)c1; target = MAPK3; assay = enzyme activity, Dundee kinase panel; setting = 10 µM; quantity = remaining activity; value = 92%
